{"data": "Published values from different studies", "note": "± marks the error that the study gave."}
{"Substance": "AGEDPHGYFLPGQFA", "assay": "TNF-α expression", "test system": "peptide, peritoneal macrophages, C57BL/6 mouse", "setting": "1 pM, 15 h, pretreated 1 h, optimal dose, together with: LPS 100 ng/ml + IFN-γ 20 ng/ml", "inhibition": "61%"}
{"Substance": "C[C@]12CCCN1CC1=NNC(=O)c3cc(F)cc4[nH]c2c1c34", "assay": "PARylation in tumour", "test system": "mouse, MDA-MB-436 xenograft, tumour", "setting": "5.45 mg/kg, 0.5 h", "inhibition": "98%"}
{"Substance": "CNC(=O)c1cc(Oc2ccc(NC(=O)Nc3ccc(Cl)c(C(F)(F)F)c3)cc2)ccn1", "assay": "tumour weight", "test system": "nude mouse, subcutaneous MHCC97H", "setting": "oral, 2 mg/kg every 2 days, 10 doses, 21 days, cells transfected", "inhibition": "65.5 ± 9.07%"}
{"Substance": "O=C(c1cc(Cc2n[nH]c(=O)c3ccccc23)ccc1F)N1CCN(C(=O)C2CC2)CC1", "assay": "PARylation, item: PAR", "test system": "MDA-MB-436 xenograft, mouse, tumour", "setting": "25 mg/kg single dose, initial 0.5 h", "inhibition": "~100%"}
{"Substance": "C[n+]1cccc2c(N)cccc21", "assay": "item: 1-MNA", "test system": "mouse, muscle", "setting": "subcutaneous, 25 mg/kg once daily for 5 days, 1 h post-dose", "scale": "relative to: 1-MNA level at 8 h post-dose", "inhibition": "~40%"}
{"Substance": "AQAGEDPHGYFLPGQFAFS", "assay": "RANTES expression", "test system": "peptide, peritoneal macrophages, C57BL/6 mouse", "setting": "100 pM, 15 h, pretreated 1 h, optimal dose, together with: LPS 100 ng/ml + IFN-γ 20 ng/ml", "inhibition": "41%"}
{"Substance": "O=C(NCc1ccc(CNS(=O)(=O)c2ccc(CN3CCOCC3)cc2)cc1)c1ccc(F)cc1", "assay": "carrageenan paw oedema", "test system": "mouse C57BL/6J female", "setting": "ip, 10 mg/kg daily, 74 h", "scale": "relative to: vehicle", "inhibition": "~20%"}
{"Substance": "CNC(=O)[C@@]12C[C@@H]1[C@@H](n1cnc3c(NC)nc(C#Cc4ccc(Cl)s4)nc31)[C@H](O)[C@@H]2O", "assay": "mechanical allodynia, paw withdrawal threshold", "test system": "mouse, sciatic nerve CCI", "setting": "oral, 3 µmol/kg, 3 h", "inhibition": "~80%"}
{"Substance": "O=C(NCc1ccc(CNS(=O)(=O)c2cccc(C(F)(F)F)c2)cc1)c1ccc(F)cc1", "assay": "carrageenan paw oedema", "test system": "mouse C57BL/6J female", "setting": "ip, 10 mg/kg daily, 74 h", "scale": "relative to: vehicle", "inhibition": "~20%"}
{"Substance": "PHGYFLPGQFAFS", "assay": "RANTES expression", "test system": "peptide, peritoneal macrophages, C57BL/6 mouse", "setting": "100 pM, 15 h, pretreated 1 h, optimal dose, together with: LPS 100 ng/ml + IFN-γ 20 ng/ml", "inhibition": "32%"}
{"note": "A few entries again:"}
{"Substance": "C[n+]1cccc2c(N)cccc21", "assay": "item: 1-MNA", "test system": "mouse, muscle", "setting": "subcutaneous, 25 mg/kg once daily for 5 days, 1 h post-dose", "scale": "relative to: 1-MNA level at 8 h post-dose", "inhibition": "~40%"}
